{"data": "Results gathered from unrelated publications", "Voltage-dependent P/Q-type calcium channel subunit alpha-1A": "Voltage-dependent P/Q-type calcium channel subunit alpha-1A (Homo sapiens, UniProt O00555)", "ACTA1 pyrene-labeled": "Actin, alpha skeletal muscle, pyrene-labeled (ACTA1, Oryctolagus cuniculus, UniProt P68135)", "gag-pol reverse transcriptase": "Gag-Pol polyprotein, reverse transcriptase (gag-pol, Human immunodeficiency virus 1, UniProt P03366)", "GABBR1": "Gamma-aminobutyric acid type B receptor subunit 1 (GABBR1, Homo sapiens, UniProt Q9UBS5)", "note": "Values joined by “and” are separate records of one study, mostly repeats; a detail may differ. ± gives the spread as reported."}
{"Structure (SMILES)": "O=C(Nc1cnccc1Cl)N1CCN(Cc2ccc3c(c2)OC(F)(F)O3)CC1", "target": "ADRB3 (Homo sapiens, UniProt P13945)", "test": "radioligand binding", "setting": "concentration not given", "inhibition": "9% and 3%"}
{"Structure (SMILES)": "O=C(/C=C\\c1ccccc1)O[C@H]1[C@@H]2C=CO[C@@H](O[C@@H]3O[C@H](CO)[C@@H](O)[C@H](O)[C@H]3O)[C@@H]2[C@@]2(CO)O[C@@H]12", "target": "MAOB (Homo sapiens, UniProt P27338)", "test": "inhibitor, fluorescence", "setting": "0.05 mg/mL, together with: kynuramine", "inhibition": "56.6%"}
{"Structure (SMILES)": "C#Cc1n[nH]c2c(-c3cn([C@@H](C)c4ccccn4)c(=O)[nH]c3=O)cc(F)cc12", "target": "5'-AMP-activated protein kinase catalytic subunit alpha-2, with beta1 gamma1 (PRKAA2, Homo sapiens, UniProt P54646)", "test": "kinase activity, inhibitor", "setting": "100 nM", "inhibition": "4%"}
{"Structure (SMILES)": "Cc1nc(Nc2ccc(CC(=O)O)cc2)nc(Nc2ccc(F)c(C(F)(F)F)c2)c1C", "target": "3',5'-cyclic-AMP phosphodiesterase 4C, isoform PDE4C1 (PDE4C, Homo sapiens, UniProt Q08493)", "test": "enzyme activity, fluorescence polarization", "setting": "200 µM", "inhibition": "no inhibition"}
{"Structure (SMILES)": "COc1cc2c(c(OC)c1OC)-c1ccc(OC)c(=O)cc1[C@@H](NC(C)=O)CC2", "target": "Voltage-dependent P/Q-type calcium channel subunit alpha-1A", "test": "ion current, antagonist", "system": "HEK293", "setting": "10 µM", "inhibition": "3%"}
{"Structure (SMILES)": "CO[C@]1([C@@H]2CSC(=O)N2C2CCCC2)C[C@H]2C[C@@H](CC[C@H](C)/C=C\\C=C\\CC/C(C)=C\\C(=O)O2)O1", "target": "ACTA1 pyrene-labeled", "test": "actin polymerization, pyrene actin", "setting": "0.1 µM", "scale": "relative to: vehicle", "inhibition": "20%"}
{"Structure (SMILES)": "O=C(Nc1cccnn1)N1CCN([C@@H]2CCOc3cc(C(F)(F)F)ccc32)CC1", "target": "5-hydroxytryptamine receptor 4, isoform 5-HT4e (HTR4, Homo sapiens, UniProt Q13639)", "test": "Cerep BioPrint", "setting": "20 µM, human 5-HT4e", "inhibition": "10%"}
{"Structure (SMILES)": "O=C1CSC(c2ccc(Br)cc2)N1c1nc(-c2ccc(S(=O)(=O)N3CCCC3)cc2)cs1 (centres unmarked)", "target": "gag-pol reverse transcriptase", "setting": "4 µM", "inhibition": "9.12%"}
{"Structure (SMILES)": "C#Cc1n[nH]c2c(-c3cn([C@@H](C)c4ccccc4)c(=O)[nH]c3=O)cc(F)cc12", "target": "Phosphatidylinositol 4,5-bisphosphate 3-kinase catalytic subunit alpha isoform, with p85 alpha (PIK3CA, Homo sapiens, UniProt P42336)", "test": "kinase activity, inhibitor", "setting": "100 nM", "inhibition": "-10.7%"}
{"Structure (SMILES)": "CN(C(=O)n1cnc(-c2ccc[n+]([O-])c2)c1)C1CCCCC1", "target": "GABBR1", "test": "radioligand binding", "setting": "10 µM, together with: [3H]CGP-54626", "inhibition": "1%"}
{"Structure (SMILES)": "Cn1cc(-c2cccc(N3CCc4c(sc5c4CC(C)(C)C5)C3=O)c2CO)cc(Nc2ccncn2)c1=O", "target": "PDPK1 (Homo sapiens, UniProt O15530)", "test": "kinase activity, inhibitor, SelectScreen", "setting": "1 µM, together with: ATP", "inhibition": "19%"}
{"Structure (SMILES)": "O=C1CSC(c2cccc(F)c2)N1c1nc(-c2ccc(S(=O)(=O)N3CCCC3)cc2)cs1 (centres unmarked)", "target": "gag-pol reverse transcriptase", "setting": "4 µM", "inhibition": "54.5%"}
{"Structure (SMILES)": "O=c1ccc2ccccc2o1", "target": "Htr1b (Rattus norvegicus, UniProt P28564)", "test": "radioligand binding, antagonist", "setting": "10 µM", "inhibition": "11.9%"}
{"Structure (SMILES)": "CCN1C(=O)SC[C@H]1[C@@]1(O)C[C@H]2C[C@@H](CC[C@H](C)/C=C\\C=C\\CC/C(C)=C\\C(=O)O2)O1", "target": "ACTA1 pyrene-labeled", "test": "actin polymerization, pyrene actin", "setting": "0.1 µM", "scale": "relative to: vehicle", "inhibition": "32%"}
{"Structure (SMILES)": "O=C1CSC(c2cccc(Cl)c2Cl)N1c1nc(-c2ccc(S(=O)(=O)N3CCCC3)cc2)cs1 (centres unmarked)", "target": "gag-pol reverse transcriptase", "setting": "4 µM", "inhibition": "10.2%"}
{"Structure (SMILES)": "CC[C@H](C)[C@H](NC(=O)[C@@H](NC(=O)[C@H](N)Cc1ccccc1)C(C)C)C(=O)N[C@@H](C)C(N)=O", "target": "APP (Homo sapiens, UniProt P05067)", "test": "amyloid-beta aggregation, thioflavin T fluorescence", "setting": "1.0 µM, 144 h, together with: 2 µM amyloid-beta", "inhibition": "64.9%"}
{"Structure (SMILES)": "Clc1cccc(-c2c[nH]c3nccc(N4CCOCC4)c23)c1", "target": "STK3 (Homo sapiens, UniProt Q13188)", "test": "kinase activity, inhibitor, PhosphoSens kinetic", "setting": "concentration not given, 2 h, together with: ATP at Km", "inhibition": "inhibited"}
{"Structure (SMILES)": "COC1(C2CSC(=O)N2)CC2CC(CCC(C)C=CC=CCCC(C)=CC(=O)O2)O1 (centres unmarked)", "target": "ACTA1 pyrene-labeled", "test": "actin polymerization, pyrene actin", "setting": "1 µM", "scale": "relative to: vehicle", "inhibition": "21%"}
{"Structure (SMILES)": "N.N.O=C([O-])C1(C(=O)[O-])CCC1.[Pt+2]", "target": "Voltage-dependent P/Q-type calcium channel subunit alpha-1A", "test": "antagonist", "setting": "3 µM", "inhibition": "3%"}
{"Structure (SMILES)": "CC(C)[C@@H](O)CC[C@@H](C)[C@H]1CC[C@H]2[C@@H]3CC=C4C[C@@H](O)CC[C@]4(C)[C@H]3CC[C@]12C", "target": "Glutamate NMDA receptor; GRIN1/GRIN2A (Homo sapiens, UniProt Q05586+Q12879)", "test": "proton inhibition of current, two-electrode voltage clamp", "system": "Xenopus oocytes", "setting": "concentration not given, current ratio pH 6.8 over pH 7.6, together with: positive allosteric modulator 10 µM", "inhibition": "52 ± 1.7%"}
{"Structure (SMILES)": "CCN1C(=O)SCC1C1(OC)CC2CC(CCC(C)C=CC=CCCC(C)=CC(=O)O2)O1 (centres unmarked)", "target": "ACTA1 pyrene-labeled", "test": "actin polymerization, pyrene actin", "setting": "0.1 µM", "scale": "relative to: vehicle", "inhibition": "0%"}
{"Structure (SMILES)": "C[C@H](C(=O)N[C@H]1COc2ccccc2[C@@H]1S(C)(=O)=O)c1ccc(F)cc1", "target": "Ca2+/calmodulin-dependent protein kinase II (rat)", "test": "Eurofins selectivity panel", "setting": "10 µM", "inhibition": "0%"}
{"Structure (SMILES)": "COc1ccc(N2C(=O)N(c3c(C)cccc3Cl)Cc3cnc(Nc4ccc(C5CCN(C)CC5)cc4OC)nc32)nc1", "target": "EPHA1 (Homo sapiens, UniProt P21709)", "test": "kinase activity", "setting": "0.5 µM", "inhibition": "98%"}
{"Structure (SMILES)": "CC(C)N1CCC[C@H]1CNC(=O)c1cn(C2CCCC2)c(=O)c2c1c1ccccc1n2C", "target": "GABBR1", "test": "radioligand binding", "setting": "10 µM", "inhibition": "-2%"}
{"Structure (SMILES)": "Cc1ncc(C)n2nc(/C=C/c3nc(N4CCCC4)cc(N4CCOCC4)n3)nc12", "target": "human TNF-alpha", "test": "binding", "setting": "10 µM", "inhibition": "-4%"}
{"Structure (SMILES)": "O=C1CSC(c2cccc(Cl)c2Cl)N1c1cccc(S(=O)(=O)Nc2nccs2)c1 (centres unmarked)", "target": "gag-pol reverse transcriptase", "setting": "4 µM", "inhibition": "6.89%"}
{"Structure (SMILES)": "COc1cc(Nc2ncc(F)c(Nc3ccc4c(n3)NC(=O)C(C)(C)O4)n2)cc(OC)c1OC", "target": "PRKAA2 (Homo sapiens, UniProt P54646)", "test": "KINOMEscan", "setting": "10 µM, AMPK-alpha2", "inhibition": "76%"}
{"Structure (SMILES)": "C/C1=C/C(=O)O[C@@H]2C[C@@H](CC[C@H](C)/C=C\\C=C\\CC1)O[C@@](O)([C@@H]1CSC(=O)N1Cc1ccccc1)C2", "target": "ACTA1 pyrene-labeled", "test": "actin polymerization, pyrene actin", "setting": "1 µM", "scale": "relative to: vehicle", "inhibition": "64%"}
{"Structure (SMILES)": "CN1CCN(c2cc(-c3ccncc3)c(-c3ccc4ccccc4c3)nn2)CC1", "target": "CCR2 (Homo sapiens, UniProt P41597)", "setting": "10 µM", "inhibition": "12.2%"}
{"Structure (SMILES)": "CN(CCN1CCC(OC(=O)Nc2ccccc2-c2ccccc2)CC1)C(=O)c1ccc(CN2CCC(C(N)=O)CC2)cc1", "target": "rat central I2 site", "test": "radioligand binding", "setting": "1 µM, together with: [3H]idazoxan 2.0 nM", "inhibition": "17%"}
{"Structure (SMILES)": "O=C1CSC(c2cccc(Br)c2)N1c1cccc(S(=O)(=O)Nc2nccs2)c1 (centres unmarked)", "target": "gag-pol reverse transcriptase", "setting": "4 µM", "inhibition": "45.3%"}
{"Structure (SMILES)": "NC/C(=C\\F)COc1cccc(Cn2c(=S)[nH]c(=O)c3[nH]cnc32)c1", "target": "rat NMDA receptor", "test": "radioligand binding", "setting": "10 µM, phencyclidine site", "inhibition": "< 50%"}
{"Structure (SMILES)": "COCc1c(-c2cc3cc(C)cc(OC)c3s2)c2c(N)ncnn2c1CN1CCNC(=O)C1", "target": "ATP1A1 (Sus scrofa, UniProt P05024)", "test": "enzyme activity", "system": "pig enzyme", "setting": "10 µM", "inhibition": "5%"}
{"Structure (SMILES)": "O=C(Nc1cccnn1)N1CCC(=Cc2cccc(Oc3ccc(C(F)(F)F)cn3)c2)CC1", "target": "CCKAR (Homo sapiens, UniProt P32238)", "test": "binding", "setting": "50 µM, together with: [3H]L-364,718", "inhibition": "17%"}
{"Structure (SMILES)": "O=C1CSC(c2ccc(Cl)cc2)N1c1cccc(S(=O)(=O)Nc2nccs2)c1 (centres unmarked)", "target": "gag-pol reverse transcriptase", "setting": "4 µM", "inhibition": "35.3%"}
